Experimental data from different studies.
Several values in a cell are separate wells, animals, samples, runs or records. Numbers after ± are the reported error. In brackets after ≈: the same amount, converted by molar mass.

CCC(NC(=O)NNS(=O)(=O)c1ccc(C)cc1)(C(F)(F)F)C(F)(F)F
antiviral activity (Severe acute respiratory syndrome coronavirus; Vero; concentration not given): inactive

NC(=O)c1ncn(C2OC(CO)C(O)C2O)c1C(N)=O (stereo not drawn)
IC90 (Mammarenavirus lassaense; viral replication; Vero; 48 h): > 50 µg/mL

O=[N+]([O-])c1ccc(-n2nc(-c3ccccc3)cc2-c2ccc(F)cc2)c([N+](=O)[O-])c1
NS1 protein reduction (Japanese encephalitis virus; western blot; Neuro2a; 15 µM, 72 h, co-treatment): ~60%

O=C(O)c1ncn(COCCOCc2ccccc2)c1C(=O)O
IC90 (Mammarenavirus lassaense; viral replication; Vero; 48 h): > 50 µg/mL

COc1ccc(C2=[N+]([O-])c3ccccc3N3CC(C)(C)CN=C23)cc1
MIC (Clostridium butyricum): 0.25 µg/mL (≈ 0.745 µM)

CC[C@H](C)[C@H](NC(=O)[C@H](CCCCN)NC(=O)[C@H](CCCCN)NC(=O)[C@H](CC(C)C)NC(=O)[C@H](Cc1c[nH]c2ccccc12)NC(=O)CN)C(=O)NCC(=O)N[C@@H](CCCCN)C(=O)N[C@@H](CCCCN)C(=O)N[C@H](C(=O)N[C@@H](CCC(=O)O)C(=O)N[C@@H](CCCNC(=N)N)C(=O)N[C@H](C(=O)NCC(=O)N[C@@H](CCC(N)=O)C(=O)N[C@@H](Cc1c[nH]cn1)C(=O)N[C@H](C(=O)N[C@@H](CCCNC(=N)N)C(=O)N[C@@H](CC(=O)O)C(=O)N[C@@H](C)C(=O)N[C@H](C(=O)N[C@H](C(=O)N[C@@H](CCC(N)=O)C(=O)N[C@H](C(=O)N[C@H](C(=O)NCC(=O)N[C@H](C(=O)N[C@@H](C)C(=O)N[C@@H](CCC(N)=O)C(=O)N[C@@H](CCC(N)=O)C(=O)N[C@@H](C)C(=O)N[C@@H](C)C(=O)N[C@@H](CC(N)=O)C(=O)N[C@H](C(=O)N[C@@H](C)C(=O)N[C@@H](C)C(=O)N[C@H](C(=O)N[C@@H](CC(C)C)C(=O)N[C@@H](CCCCN)C(N)=O)[C@@H](C)O)C(C)C)C(C)C)[C@@H](C)CC)[C@@H](C)O)[C@@H](C)CC)[C@@H](C)O)[C@@H](C)O)C(C)C)[C@@H](C)CC
MIC (Staphylococcus epidermidis; ATCC 35984, CAMHB): > 1020 µg/mL

O=[N+]([O-])c1ccc(-n2nc(-c3ccc(F)cc3)cc2-c2ccc(F)cc2)c([N+](=O)[O-])c1
viral particle reduction (Japanese encephalitis virus; plaque; Neuro2a, SA14-14-2; 15 µM, 72 h, co-treatment): ~82%

O=C(C=Cc1ccc(O)c(O)c1)OC1CC(O)(C(=O)O)CC(OC(=O)C=Cc2ccc(O)c(O)c2)C1O (stereo not drawn)
inhibition (Severe acute respiratory syndrome coronavirus 2; cytopathic effect, inhibitor; Vero C1008; 6.25 µM): 0%

COc1cc(Cc2cnc(N)nc2N)cc(OC)c1OC.O=c1[nH]cc(F)c(=O)[nH]1
MIC (Shigella dysenteriae; broth microdilution; 24 h): 8 µg/mL

COC(=O)CC1C2CCCN3CCCC(CN1C(=O)c1ccc(Cl)cc1)C23.Cl (stereo not drawn)
selectivity index (Ebola virus; EBOV GP pseudotyped HIV; reference: CC50 over IC50): > 2.27

CC(C)CC(C(=O)N1CC2(CC1C#N)C(=O)Nc1ccccc12)N(C)C(=O)c1cc2c(F)cc(F)c(F)c2[nH]1 (stereo not drawn)
inhibition (SARS-CoV-2; viral replication, infectious virus; Vero E6; 0.03333 µM): 98.3%

CCCC1(CN2c3ccccc3Sc3ccccc32)CCN(CC)C1 (stereo not drawn)
EC90 (SARS coronavirus; Vero 76, Urbani): 10300 ± 5400 nM

NNC(=O)c1ncn(C2OC(CO)C(O)C2O)c1C(=O)NN (stereo not drawn)
IC50 (Zaire ebolavirus; viral replication, inhibitor; Vero; 72 h): 23 µg/mL

O=S(=O)(O)c1cccc(-c2c3nc(c(-c4cccc(S(=O)(=O)O)c4Cl)c4ccc([nH]4)c(-c4cccc(S(=O)(=O)O)c4Cl)c4nc(c(-c5cccc(S(=O)(=O)O)c5Cl)c5ccc2[nH]5)C=C4)C=C3)c1Cl
EC50 (vaccinia virus; viral replication; CV-1, IHD-J): 1 ± 0.1 µg/mL

[O-][N+]1=C(c2ccc(Cl)cc2)C2=NCCCN2c2ccccc21
MIC (Clostridium perfringens): 16 to 64 µg/mL (≈ 51.3 to 205 µM)

CC(=O)OC1(C)CC(C=C(C)CCC=C(C)C)OC2(C=C(CO)C3CC(=O)C(C)=CC3O2)C1 (stereo not drawn)
EC50 (SARS-CoV-2 Omicron BA.2; viral replication, dsRNA staining; Calu-3): 700 nM

N#Cc1ncn(COCCOCc2ccccc2)c1C#N
IC50 (Severe acute respiratory syndrome coronavirus; viral replication; Vero; 48 h): 30 µg/mL

[O-][N+]1=C(c2ccsc2)C2=NCCCN2c2ccccc21
MIC90 (Clostridium perfringens): 8 µg/mL (≈ 28.2 µM)

NC(=O)c1nc(F)c[nH]c1=O
Emax (Lassa mammarenavirus; viral replication; Huh-7; concentration not given): 99 ± 0.2%

CN1CCN(C(=O)N[C@@H](Cc2ccccc2)C(=O)N[C@H](/C=C/S(=O)(=O)c2ccccc2)CCc2ccccc2)CC1
IC50 (Severe acute respiratory syndrome coronavirus; viral replication; Vero 76, Urbani): 520 ± 170 nM

Cc1ccc(NS(=O)(=O)c2c(C(=O)N3CCCCCC3)c(C)n(C)c2C)c(Cl)c1
relative infection (Monkeypox virus; qPCR; Vero C1008, wild type; 0.16 µM, 72 h; reference: untreated): 44.8% and 30.7% and 49.4%
